Experimental data pooled from the literature.
A part holds a random share of what one study measured.
UniProt O96017, sequence (whole entry, looked up): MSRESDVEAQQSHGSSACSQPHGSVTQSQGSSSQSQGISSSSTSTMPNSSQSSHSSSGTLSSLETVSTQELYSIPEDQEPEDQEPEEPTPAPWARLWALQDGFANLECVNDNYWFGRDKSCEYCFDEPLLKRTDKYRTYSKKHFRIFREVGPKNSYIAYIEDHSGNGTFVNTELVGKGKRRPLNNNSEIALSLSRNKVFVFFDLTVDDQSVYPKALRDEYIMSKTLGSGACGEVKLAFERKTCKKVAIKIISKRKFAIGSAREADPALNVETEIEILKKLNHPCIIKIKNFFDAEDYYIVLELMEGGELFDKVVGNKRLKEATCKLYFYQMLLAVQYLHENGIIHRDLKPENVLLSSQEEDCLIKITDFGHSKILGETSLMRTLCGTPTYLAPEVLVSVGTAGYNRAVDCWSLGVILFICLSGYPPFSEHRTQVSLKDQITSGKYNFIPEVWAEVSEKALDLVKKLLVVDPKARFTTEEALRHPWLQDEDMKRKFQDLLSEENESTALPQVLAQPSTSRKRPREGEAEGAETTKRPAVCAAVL
UniProt P11362, sequence (whole entry, looked up): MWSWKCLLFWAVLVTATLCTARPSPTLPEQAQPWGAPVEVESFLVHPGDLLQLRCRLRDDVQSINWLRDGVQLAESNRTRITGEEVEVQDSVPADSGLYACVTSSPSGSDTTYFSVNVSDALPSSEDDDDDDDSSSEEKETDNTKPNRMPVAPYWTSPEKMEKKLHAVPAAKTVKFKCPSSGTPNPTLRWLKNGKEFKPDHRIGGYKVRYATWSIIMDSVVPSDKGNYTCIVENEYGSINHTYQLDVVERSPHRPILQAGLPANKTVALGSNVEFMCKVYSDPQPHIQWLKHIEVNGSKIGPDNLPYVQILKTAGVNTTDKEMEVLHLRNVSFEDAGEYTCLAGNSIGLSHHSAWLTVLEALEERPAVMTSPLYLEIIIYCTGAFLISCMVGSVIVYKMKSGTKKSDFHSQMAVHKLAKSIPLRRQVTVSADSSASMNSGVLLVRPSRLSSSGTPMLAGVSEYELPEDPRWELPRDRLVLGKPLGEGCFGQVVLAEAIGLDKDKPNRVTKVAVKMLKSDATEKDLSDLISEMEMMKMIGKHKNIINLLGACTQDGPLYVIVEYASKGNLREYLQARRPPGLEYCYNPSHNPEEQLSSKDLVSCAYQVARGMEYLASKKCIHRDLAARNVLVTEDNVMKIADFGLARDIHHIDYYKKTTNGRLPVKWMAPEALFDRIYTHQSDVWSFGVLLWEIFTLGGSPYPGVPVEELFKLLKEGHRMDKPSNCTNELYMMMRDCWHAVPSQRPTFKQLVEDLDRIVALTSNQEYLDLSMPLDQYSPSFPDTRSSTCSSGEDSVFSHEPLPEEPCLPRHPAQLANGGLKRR
UniProt Q13554, sequence (whole entry, looked up): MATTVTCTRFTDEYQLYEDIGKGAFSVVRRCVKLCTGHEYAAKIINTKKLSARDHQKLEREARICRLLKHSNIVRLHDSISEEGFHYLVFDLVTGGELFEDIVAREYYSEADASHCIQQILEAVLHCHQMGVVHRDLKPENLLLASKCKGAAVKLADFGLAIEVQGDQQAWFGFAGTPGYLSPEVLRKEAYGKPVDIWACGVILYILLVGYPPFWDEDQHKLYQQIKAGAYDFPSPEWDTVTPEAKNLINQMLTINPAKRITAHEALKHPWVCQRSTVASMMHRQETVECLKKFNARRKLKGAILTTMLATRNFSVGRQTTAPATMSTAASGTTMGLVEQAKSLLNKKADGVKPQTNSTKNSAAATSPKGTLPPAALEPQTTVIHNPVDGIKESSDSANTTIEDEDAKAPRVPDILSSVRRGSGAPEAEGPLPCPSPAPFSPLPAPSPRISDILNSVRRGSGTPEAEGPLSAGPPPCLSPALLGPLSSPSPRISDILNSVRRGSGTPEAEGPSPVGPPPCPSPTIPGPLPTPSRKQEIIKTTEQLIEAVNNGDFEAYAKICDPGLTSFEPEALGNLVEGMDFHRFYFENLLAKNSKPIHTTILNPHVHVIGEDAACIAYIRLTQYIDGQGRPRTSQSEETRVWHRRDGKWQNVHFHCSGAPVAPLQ
UniProt Q13163, sequence (whole entry, looked up): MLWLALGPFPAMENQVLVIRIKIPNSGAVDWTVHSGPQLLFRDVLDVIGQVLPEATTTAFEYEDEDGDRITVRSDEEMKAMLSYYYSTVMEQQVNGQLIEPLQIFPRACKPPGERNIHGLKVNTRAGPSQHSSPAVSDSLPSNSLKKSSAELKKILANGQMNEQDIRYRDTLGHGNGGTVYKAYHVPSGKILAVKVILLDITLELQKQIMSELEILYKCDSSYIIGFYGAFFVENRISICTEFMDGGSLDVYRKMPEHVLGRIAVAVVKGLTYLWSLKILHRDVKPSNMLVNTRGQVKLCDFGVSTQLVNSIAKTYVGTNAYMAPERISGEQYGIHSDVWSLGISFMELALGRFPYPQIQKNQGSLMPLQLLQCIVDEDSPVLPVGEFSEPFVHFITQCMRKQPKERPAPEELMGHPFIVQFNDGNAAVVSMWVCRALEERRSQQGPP
UniProt Q13882, sequence (whole entry, looked up): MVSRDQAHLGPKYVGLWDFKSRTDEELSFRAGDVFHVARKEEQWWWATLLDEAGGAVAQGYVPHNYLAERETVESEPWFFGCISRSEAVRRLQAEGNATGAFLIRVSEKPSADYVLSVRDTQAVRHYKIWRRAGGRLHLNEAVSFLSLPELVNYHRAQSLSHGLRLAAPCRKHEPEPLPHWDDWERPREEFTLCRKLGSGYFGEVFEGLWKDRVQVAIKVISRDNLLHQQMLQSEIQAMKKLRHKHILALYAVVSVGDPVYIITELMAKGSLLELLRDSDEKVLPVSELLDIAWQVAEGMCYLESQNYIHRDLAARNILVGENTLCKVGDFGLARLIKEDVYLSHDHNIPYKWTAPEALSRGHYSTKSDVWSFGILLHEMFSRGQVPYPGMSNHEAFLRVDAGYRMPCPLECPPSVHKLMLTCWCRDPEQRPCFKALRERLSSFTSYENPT
UniProt Q9Y5S2, sequence (whole entry, looked up): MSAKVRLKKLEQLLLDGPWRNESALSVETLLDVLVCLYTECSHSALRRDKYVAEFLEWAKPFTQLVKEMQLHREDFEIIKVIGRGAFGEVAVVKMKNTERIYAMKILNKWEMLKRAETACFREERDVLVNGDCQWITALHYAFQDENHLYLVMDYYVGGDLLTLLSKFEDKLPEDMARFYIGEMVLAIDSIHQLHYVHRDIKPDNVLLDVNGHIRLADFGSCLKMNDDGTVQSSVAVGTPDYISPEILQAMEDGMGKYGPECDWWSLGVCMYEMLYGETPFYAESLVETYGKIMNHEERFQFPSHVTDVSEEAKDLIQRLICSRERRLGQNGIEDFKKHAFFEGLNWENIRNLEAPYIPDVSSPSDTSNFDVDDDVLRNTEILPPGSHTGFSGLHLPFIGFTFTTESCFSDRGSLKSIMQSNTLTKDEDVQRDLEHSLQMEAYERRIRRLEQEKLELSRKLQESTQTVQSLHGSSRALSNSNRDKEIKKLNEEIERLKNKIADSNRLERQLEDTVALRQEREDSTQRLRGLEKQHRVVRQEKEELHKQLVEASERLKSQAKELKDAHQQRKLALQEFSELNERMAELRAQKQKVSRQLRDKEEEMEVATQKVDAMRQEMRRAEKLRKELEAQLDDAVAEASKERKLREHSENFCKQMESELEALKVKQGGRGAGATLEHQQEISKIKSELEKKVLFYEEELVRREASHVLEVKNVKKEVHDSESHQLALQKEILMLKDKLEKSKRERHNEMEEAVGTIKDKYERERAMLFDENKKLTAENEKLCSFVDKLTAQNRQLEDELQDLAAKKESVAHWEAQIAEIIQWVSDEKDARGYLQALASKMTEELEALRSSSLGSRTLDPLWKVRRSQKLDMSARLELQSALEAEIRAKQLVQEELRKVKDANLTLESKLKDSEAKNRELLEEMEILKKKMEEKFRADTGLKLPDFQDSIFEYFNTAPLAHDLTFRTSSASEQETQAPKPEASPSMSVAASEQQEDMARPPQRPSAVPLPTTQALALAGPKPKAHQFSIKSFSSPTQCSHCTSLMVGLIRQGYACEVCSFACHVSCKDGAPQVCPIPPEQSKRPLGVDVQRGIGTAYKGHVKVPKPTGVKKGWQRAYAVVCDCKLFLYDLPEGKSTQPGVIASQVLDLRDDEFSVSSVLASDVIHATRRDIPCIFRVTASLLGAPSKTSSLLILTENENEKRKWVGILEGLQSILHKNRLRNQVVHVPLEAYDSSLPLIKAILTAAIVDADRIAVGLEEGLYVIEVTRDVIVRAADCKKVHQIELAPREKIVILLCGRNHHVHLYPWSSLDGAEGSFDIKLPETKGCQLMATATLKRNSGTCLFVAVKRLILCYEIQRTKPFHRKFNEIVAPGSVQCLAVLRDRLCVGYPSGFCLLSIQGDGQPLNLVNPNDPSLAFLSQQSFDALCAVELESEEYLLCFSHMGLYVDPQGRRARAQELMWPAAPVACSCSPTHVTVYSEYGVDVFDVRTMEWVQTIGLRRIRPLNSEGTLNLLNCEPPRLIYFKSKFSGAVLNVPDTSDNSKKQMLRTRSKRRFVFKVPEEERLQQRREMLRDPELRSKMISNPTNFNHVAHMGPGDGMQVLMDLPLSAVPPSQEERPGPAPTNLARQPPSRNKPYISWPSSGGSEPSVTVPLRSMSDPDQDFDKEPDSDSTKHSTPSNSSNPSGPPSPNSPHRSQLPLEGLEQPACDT
UniProt Q9P289, sequence (whole entry, looked up): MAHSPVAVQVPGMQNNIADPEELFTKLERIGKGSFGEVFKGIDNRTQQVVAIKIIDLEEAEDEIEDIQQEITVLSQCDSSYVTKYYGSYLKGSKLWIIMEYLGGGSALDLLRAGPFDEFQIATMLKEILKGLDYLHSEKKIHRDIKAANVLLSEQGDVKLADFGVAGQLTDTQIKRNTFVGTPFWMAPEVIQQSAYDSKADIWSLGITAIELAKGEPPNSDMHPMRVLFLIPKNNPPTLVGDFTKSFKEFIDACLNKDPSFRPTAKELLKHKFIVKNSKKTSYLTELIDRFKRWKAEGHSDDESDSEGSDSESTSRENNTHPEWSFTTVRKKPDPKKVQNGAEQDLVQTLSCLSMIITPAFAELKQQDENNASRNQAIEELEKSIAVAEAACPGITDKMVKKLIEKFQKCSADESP

Series 1
SMILES: COc1ccc2[nH]c3c4[nH]c5ccc(OC)cc5c4c4c(c3c2c1)C(=O)NC4=O
Tested at: 1 µM
Measurement: remaining binding
EGFR (Homo sapiens, UniProt P00533, del752-759); competitive binding panel; relative to: vehicle: 68%
CDC42BPB (Homo sapiens, UniProt Q9Y5S2); competitive binding; MRCKB: 89%
MINK1 (Homo sapiens, UniProt Q8N4C8); competitive binding; MINK: 1.7%

Series 2
Cell line: HaCaT
Tested at: 100 µM
Time: 36 h
Measurement: viability
CCN(CCO)CCCC(C)Nc1ccnc2cc(Cl)ccc12 (stereo not drawn): 5.2%
COc1ccnc(C[S+]([O-])c2nc3ccc(OC(F)F)cc3[nH]2)c1OC (stereo not drawn): 60.5%
COc1ccc(/C=C/C(=O)Nc2ccccc2C(=O)O)cc1OC: 34.9%
CNC(=O)c1c(C)oc2cc(Oc3ncnc4cc(OC)c(OC)cc34)ccc12: 97.2%
CN(C)CCc1c[nH]c2ccc(C[C@H]3COC(=O)N3)cc12: 80.7%
Clc1cccc(Cl)c1N=C1NCCN1: 78.1%

Series 3
Compound: COc1ccc2c(c1)O[C@@H](c1ccc(OC)c(OC)c1)C[C@H]2NC(=O)C1(c2ccc3c(c2)OC(F)(F)O3)CC1
Effect on: cell-free assay
Method: competition with immobilised ligand
Tested at: 1 µM
Measurement: remaining binding
FGFR1 (Homo sapiens, UniProt P11362): 90%
CDK7 (Homo sapiens, UniProt P50613): 80%
DDR2 (Homo sapiens, UniProt Q16832): 98%
CAMK2B (Homo sapiens, UniProt Q13554): 69%
PLK1 (Homo sapiens, UniProt P53350): 70%
EGFR (Homo sapiens, UniProt P00533, A750P/del747-749): 100%
STK26 (Homo sapiens, UniProt Q9P289): 75%
PTK6 (Homo sapiens, UniProt Q13882): 100%
KIT (Homo sapiens, UniProt P10721, V559D/V654A): 100%
Tyrosine-protein kinase ABL1, non-phosphorylated (ABL1, Homo sapiens, UniProt P00519, T315I): 75%
MAP2K5 (Homo sapiens, UniProt Q13163): 67%
CDK18 (Homo sapiens, UniProt Q07002): 100%
EGFR (Homo sapiens, UniProt P00533, del746-750): 68%
PKN2 (Homo sapiens, UniProt Q16513): 100%
CHEK2 (Homo sapiens, UniProt O96017): 84%

Series 4
Compound: CC(=O)N[C@@H](Cc1c[nH]c2ccccc12)C(=O)N[C@@H](CCC(=O)C=[N+]=[N-])C(=O)OC(C)C
Dose: dose not given
Relative to: vehicle
Measurement: log2 fold change
metabolomics, item: inosine 5'-monophosphate; mouse, EL4 tumour: 0.13
item: glucose 6-phosphate; mouse, EL4 tumour-bearing, EL4 tumour: 0.661
item: 3-phosphoglycerate; mouse, EL4 tumour-bearing, EL4 tumour: 0.848
item: guanine; mouse, EL4 tumour-bearing, EL4 tumour: -1.2
item: thiamin; mouse, EL4 tumour, tumour: 0.0094
item: ribose; mouse, EL4 tumour-bearing, EL4 tumour: 1.69
metabolomics, item: 2,3-dihydroxy-2-methylbutyrate; mouse, EL4 tumour: -1.19
item: S-methylglutathione; mouse, EL4 tumour-bearing, EL4 tumour: -0.839
item: UMP; mouse, EL4 tumour-bearing, EL4 tumour: -0.359

A few entries again (series 4):
item: UMP; mouse, EL4 tumour-bearing, EL4 tumour: -0.359
metabolomics, item: inosine 5'-monophosphate; mouse, EL4 tumour: 0.13
item: thiamin; mouse, EL4 tumour, tumour: 0.0094
item: ribose; mouse, EL4 tumour-bearing, EL4 tumour: 1.69
